Assay results of several laboratories.
Protocols differ between the studies behind these lines. Several values in a cell are separate wells, animals, samples, runs or records. ± gives the spread as reported.

SMILES	test	system	setting	how to read	endpoint	value
CC1(C)CCC(c2ccc(Cl)cc2)=C(CN2CCN(c3ccc(C(=O)NS(=O)(=O)c4ccc(N[C@H](CCN5CCOCC5)CSc5ccccc5)c(S(=O)(=O)C(F)(F)F)c4)cc3)CC2)C1	cell kill, PI exclusion flow cytometry	normal CD3+ T lymphocytes, human, lymph node	24 h		EC50	265 nM
COc1ccc(-c2cncc(N[C@@H](C)c3cccc(NC(=O)c4cncc(C)c4)c3)n2)cc1OC	measured: rno-miR-136-5p	rat SU5416/hypoxia model, lung	dose not given, unit not given	relative to: SU5416/hypoxia vehicle	delta delta Ct	-1.32
C[C@H](Oc1ccc(Br)cc1-c1ccon1)C(=O)O	muscle velocity recovery cycle	human, tibialis anterior muscle	400 mg once daily, first response peak at 30 Hz, multiple ascending dose		difference from placebo	8.69%
NC(=O)c1cnc2[nH]ccc2c1N[C@@H]1[C@@H]2CC3C[C@H]1C[C@@](O)(C3)C2	CD8+ CD28+ naive T cells, flow cytometry	Japanese humans, peripheral blood	60 mg single dose	relative to: baseline	percent change	-1.87%
N#Cc1ccc2c(c1)[C@H]1CCCN(C(=O)c3ccc4[nH]cnc4c3)[C@H]1C2	measured: androstenedione	human female, Phase II trial	oral, 80 mg once daily, HPA axis, mean		change from baseline	1.47 nmol/L
O=C(COc1ccc(Cl)cc1)NC12CC(c3nnc([C@H]4C[C@@H](OC(F)(F)F)C4)o3)(C1)C2		healthy human, PBMC	145 mg once daily, day 14, 4 h post-dose, median, together with: sodium arsenite ex vivo	relative to: baseline	CHAC1 mRNA change	-95.7%
O=C(NCC1CCOCC1)c1ccc([C@H]2[C@@H](F)[C@@H](F)C[C@@H](F)[C@H]2F)cc1	liver microsome stability	dog liver microsomes	1 µM		hepatic clearance	10 mL/min/kg
COc1cc(Nc2ncc3c(n2)-c2ccc(Cl)cc2C(c2c(F)cccc2OC)=NC3)ccc1C(=O)O		mouse, NB-SD neuroblastoma xenograft	oral, 2.6 mg/kg, day 7	relative to: vehicle	relative tumour volume T/C	1.84
N#Cc1ccn2c(-c3ccncc3)c(-c3ccc(F)cc3)nc2c1	kinase binding, competitor, MIB/MS competition, measured: SHA3	Candida albicans cell lysate	1 µM	relative to: DMSO	log2 fold change	-0.252
CSCCNc1nc(SCCC(F)(F)F)nc2c1ncn2[C@@H]1O[C@H](COP(=O)(O)OP(=O)(O)C(Cl)(Cl)P(=O)(O)O)[C@@H](O)[C@H]1O	light transmittance aggregometry	human patients, platelet-rich plasma	dose not given, 3 h, together with: ADP 5 µM		inhibition of platelet aggregation	19.4 ± 21.4%
CCn1c2ccccc2c2cc(C(O)c3cccc4ncccc34)ccc21 (stereo not shown)	cleaved caspase-3 staining	mouse PDGFB-driven RCAS/tv-a glioma model	dose not given, end stage		apoptotic cells	no effect
CN[C@@H]1COc2c(S(=O)(=O)NC(=O)Nc3c4c(cc5c3CCC5)CCC4)cnn2C1	measured: IL-1β	human participants, whole blood ex vivo	1800 mg single dose, 8 h, together with: LPS/ATP	relative to: baseline	inhibition	99.8%
OC(CCN1CCCCC1)(c1ccccc1)C1CC2C=CC1C2 (stereo not shown)	resting-state EEG	healthy elderly humans	oral, 4 mg, eyes closed, LS mean	relative to: baseline	change in EEG Alpha1-power Pz-O2	-35.6%
O=C(O)CNC(=O)Cc1ccccc1		ventricular cardiomyocytes, C57BL/6 mouse	dose not given, 0.74 s		sarcomere length	1.72 µm
C[C@H]1O[C@@H](O[C@H]2CC[C@@]3(C)[C@@H](CC[C@]4(C)[C@@H]3C=C[C@]35OC[C@@]6(CCC(C)(C)C[C@H]63)[C@@H](O)C[C@]54C)[C@]2(C)CO)[C@H](O)[C@@H](O[C@@H]2O[C@H](CO)[C@@H](O)[C@H](O)[C@H]2O)[C@H]1O		Mus musculus, pair-fed control, liver	oral, 15 mg/kg/day		hepatic total cholesterol	0.0915 mmol/g protein and 0.0875 mmol/g protein and 0.0625 mmol/g protein and 0.0738 mmol/g protein and 0.076 mmol/g protein and 0.0719 mmol/g protein
CC(C(=O)Nc1ccc(C2CCCCC2)cc1)n1cncn1 (stereo not shown)		dog liver microsomes	1 µM		hepatic clearance	20 mL/min/kg
CC(C)NCC(O)c1ccc(O)c(O)c1 (stereo not shown)		ventricular cardiomyocytes, C57BL/6 mouse	dose not given, 0.46 s		sarcomere length	1.66 µm
Cn1cc(Nc2nccc(-c3ccc4c(c3)CN(C3COC3)CC[C@H]4NC(=O)c3cn(C(C)(C)C)nn3)n2)cn1	measured: tRNA splicing	splenic B cells, mice	30 mg/kg, IgD-activated in vivo	relative to: vehicle, direction not given	pathway activation z-score	0
Cc1n[nH]c2ccc(-c3cc(OC[C@@H](N)Cc4ccccc4)cnc3-c3ccoc3)cc12	kinase binding, competitor, MIB/MS competition, measured: ENV7	Candida albicans cell lysate	10 µM	relative to: DMSO	log2 fold change	-1.89
C[C@H]1C[C@H]2CSC(N)=N[C@@]2(c2nc(NC(=O)c3ccc(OC(F)F)cn3)cs2)CO1	measured: Aβx-40	healthy adults, plasma	275 mg once daily, day 1	relative to: placebo	percent change from baseline	-70.4%
CN(C)C(=O)c1cc2cnc(Nc3ccc(N4CCNCC4)cn3)nc2n1C1CCCC1	RNA-seq GSEA, measured: HALLMARK_MITOTIC_SPINDLE	MB002 tumour	concentration not given, in vivo	relative to: vehicle, direction not given	GSEA enrichment score	0.383
N#Cc1ccc2c(-c3ccncc3)c(-c3ccc(F)cc3)nn2c1	kinase binding, competitor, MIB/MS competition, measured: RCK2	Candida albicans cell lysate	100 nM	relative to: DMSO	log2 fold change	-0.0491

A few entries again:
SMILES	test	system	setting	how to read	endpoint	value
C[C@H]1C[C@H]2CSC(N)=N[C@@]2(c2nc(NC(=O)c3ccc(OC(F)F)cn3)cs2)CO1	measured: Aβx-40	healthy adults, plasma	275 mg once daily, day 1	relative to: placebo	percent change from baseline	-70.4%
CN(C)C(=O)c1cc2cnc(Nc3ccc(N4CCNCC4)cn3)nc2n1C1CCCC1	RNA-seq GSEA, measured: HALLMARK_MITOTIC_SPINDLE	MB002 tumour	concentration not given, in vivo	relative to: vehicle, direction not given	GSEA enrichment score	0.383
N#Cc1ccc2c(-c3ccncc3)c(-c3ccc(F)cc3)nn2c1	kinase binding, competitor, MIB/MS competition, measured: RCK2	Candida albicans cell lysate	100 nM	relative to: DMSO	log2 fold change	-0.0491
